Published values collected from several papers.
Every numbered part comes from another study and shows a few of its results, in no order. Substitutions count along the parent as printed.

Sample 1 — method: RNA Bind-n-Seq; molecule type: RNA; matrix: in vitro; tested at: 100 nM; baseline: input RNA pool; direction: higher = stronger binding; endpoint: bound/input enrichment
Target: RING finger protein unkempt homolog, zinc fingers 1-6, SBP tag (UNK, Homo sapiens, UniProt Q9C0B0, residues 30-357)
Chain of UniProt Q9C0B0 (30-357, looked up): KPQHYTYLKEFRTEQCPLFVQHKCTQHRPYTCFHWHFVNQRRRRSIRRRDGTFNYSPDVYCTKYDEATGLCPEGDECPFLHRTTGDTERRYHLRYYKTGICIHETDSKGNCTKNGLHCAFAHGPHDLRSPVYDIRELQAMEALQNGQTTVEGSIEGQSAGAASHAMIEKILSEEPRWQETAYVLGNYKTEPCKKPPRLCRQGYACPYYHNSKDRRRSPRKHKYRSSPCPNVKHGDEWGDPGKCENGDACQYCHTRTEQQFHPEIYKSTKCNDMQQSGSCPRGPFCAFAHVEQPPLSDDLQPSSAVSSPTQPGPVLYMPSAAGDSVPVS
Notes: RNA with constant flanks, vertebrate orthologous sites, ends assumed
Shared flanks, not repeated: GGGAGUUCUACAGUCCGACGAUC … CAACAGAGGAUUGAGCAUCA
CAACACACAGGGUUUACGAACUGGUCUUACAAAUGUGGCCAACAGAUAUGGAACUUACACUCCAGGACAAUUCACCCAGUUCAAGCAAUGACAGUAUCUCCAUUUUAAUAAAUUUGUAUU: 0.651 ratio
GCCUACAAUAAUGAAAACUUACAGGAAUUUUUUUAUUUUUCAUUUCCCCUUAGGCAUACUUAGUCUUUUCCCCCAGGCAGAUGAUUCUGAGUGUGCGAGUGUGUGCACAUGUUACAGACA: 0.666 ratio
UCAUUGUACAGGAGAAGUCAUCCUACUUCUAAACUAGCCAAAGUAAUCACCAGUCUGCAGUAAUAGAAUCAUUUGCUAUUACCUUUUAAAUCAUCUGUUUUGUGAGAUAUCUGAAAUGUA: 0.896 ratio
GGAACCUAUUCGCCACUCCCGAUGCGUGCCUGGGGUGAAGCAUCCACCAGCACUGCGAGGGGGUCCAUAGUAUUUUGUUGGCUGCCUCAGAGUCCCCAAAGCCUUCAAGCAGACAUGGCA: 0.484 ratio
CUCCCGGGGCUUGGUGGAGUAGGCUCCUGUGCUCCUGACAGUGUUCUUUGUUUUAUUGUCCUCGGGGUGGGGGGUGCUCACUGCCCCUGCGGUGCGAGCUUUGUGGUUCAUCUGUAUUUA: 0.478 ratio
ACAGCCCUCUUCUUAAGCUGGUGUUUUCACACACUAGGAAGCUAUUAUUGUUUUUCACAGUCUAGUACCUGGUUUUUACAUGGAAGACUAAACUCAUGCUUAUAGCUAAAUGUGGUCUUU: 0.472 ratio
UUCUAGUACUUAAGCCAACAGUUCUAAAAUGCUAUUUAUUUGUGUCUGUAAGAUUGUACAUAUACUACCAACCUCAUACUGUUGUGGAUUUUUUUCUCACAAGCUUGAGUUUAGGUUUUU: 0.412 ratio
UCACGAUCUCUACUUAAGUAGGUUUUACAUACCGAGUUAAGCCUUCAUUUUACAUAUUUACAGCUUUUCUCCAGAGGAGGUAAAAGAAUCUCAUGCUUAAAGUUACAUGUGGUCUUUGGC: 0.442 ratio
AAAUUCCCCCAUUGUCACUGAGAACCACCAAAUCUGACUUUUACAUUUGGUCUCAGAAUUUAGGUUCCUGCCCUGUUGGUUUUUUUUUUUUUUUUUUAAACCGUUUUCAAAAGUUCUUAA: 0.972 ratio
GAAGGGCUGCGUAGAGUAGGGUCCUGUUCUCUUUAGAGCGUUCUUCUCUGUUUUGUCUUCCUCAGGGUGGGGUAGGGGUUGUGGUGCACCCCAGCCCUGAGGCGUGAGUGUUUGUGGUUC: 1.01 ratio
GUCAUCUGAUUGGAUGAAGACUGUCCCGAGUUAUAACCAAACAAACAGCUCCAUGGACUUCAGAAACUAUAUGAUGAGAGAUGAGAAUCUGGAACCACUGCCCAAAAACUGGGAGAUGGC: 0.33 ratio

Sample 2 — target: CCNA1, cyclin fold, Cln2 fusion (human); method: yeast growth competition, sequencing; matrix: yeast; notes: strong parent motif; baseline: not given; direction: higher = stronger binding; endpoint: normalised enrichment score
Starting sequence: RBL2 docking peptide (human); STTRRRLFVENDS; partner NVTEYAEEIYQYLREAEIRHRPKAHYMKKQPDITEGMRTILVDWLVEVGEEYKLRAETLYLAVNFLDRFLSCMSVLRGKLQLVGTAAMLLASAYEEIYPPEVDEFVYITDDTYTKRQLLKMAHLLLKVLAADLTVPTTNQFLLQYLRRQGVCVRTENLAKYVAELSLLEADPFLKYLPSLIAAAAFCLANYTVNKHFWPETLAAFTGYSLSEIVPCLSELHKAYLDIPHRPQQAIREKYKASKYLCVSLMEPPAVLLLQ
STTRRRLFVEGDS [N11G]: 0.65
STTSRRLFVENDS [R4S]: 0.041
STTRRRLFEENDS [V9E]: 0.529
STTVRRLFVENDS [R4V]: 0.337
STTRRRLFLENDS [V9L]: 0.51
STTRRRLFVENDW [S13W]: 0.801
STTRRRLFVEPDS [N11P]: 0.714
STRRRRLFVENDS [T3R]: 0.479
STTRDRLFVENDS [R5D]: 0.214
STVRRRLFVENDS [T3V]: 0.908
DTTRRRLFVENDS [S1D]: 0.687
STTWRRLFVENDS [R4W]: -0.00892
STTRVRLFVENDS [R5V]: 0.398
STTRRRLFVEEDS [N11E]: 0.55
STTRRRLFVENDF [S13F]: 0.709
SMTRRRLFVENDS [T2M]: 0.614
STTRRRLFAENDS [V9A]: 0.757
ITTRRRLFVENDS [S1I]: 0.567
STTRRRLFVENDP [S13P]: 1.04
SFTRRRLFVENDS [T2F]: 0.493
SVTRRRLFVENDS [T2V]: 0.581
STTRRRLFRENDS [V9R]: 0.338
STTRRRLQVENDS [F8Q]: 0.472
STTRYRLFVENDS [R5Y]: 0.286
STTRRRLCVENDS [F8C]: 0.502

Sample 3 — method: DHFR PCA, deep sequencing; matrix: yeast; added: (+)-ABA 0 µM; baseline: wild-type fitted maximum; direction: higher = stronger binding; endpoint: relative binding score
Target: ABI1, truncated, D143A, DHFR fusion (Arabidopsis thaliana)
Notes: methotrexate growth selection, single substitutions
Starting sequence: PYL1, truncated, DHFR fusion (Arabidopsis thaliana); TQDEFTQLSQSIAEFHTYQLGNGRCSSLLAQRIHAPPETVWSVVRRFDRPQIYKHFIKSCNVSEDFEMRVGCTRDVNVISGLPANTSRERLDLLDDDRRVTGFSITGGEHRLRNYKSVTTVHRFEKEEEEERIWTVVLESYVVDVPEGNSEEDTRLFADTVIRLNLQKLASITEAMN
Y115V: 4.7%
L91W: -1.06%
N61A: 33.1%
R155Q: 13.9%
E127K: 45.5%
R46H: 1.23%
V44N: -2.01%
A170K: 50.3%
V142F: -8.53%
R113P: 69.4%
Y18H: 42.1%
Y53W: 47.8%
E127N: 27.7%
V136G: -11.8%
S150G: 1.42%
K126E: 34.8%
V43W: -2.16%
S9D: 9.55%
S27C: 2.06%
D159F: -16.6%
H122M: -1.34%
V121R: 3.72%
R32C: 15.3%
V76Y: -0.427%
T106G: 1.24%

Sample 4 — method: RNA Bind-n-Seq; molecule type: RNA; matrix: in vitro; tested at: 365 nM; baseline: no-protein control; direction: higher = stronger binding; endpoint: RBNS enrichment (R)
Target: RNA binding protein fox-1 homolog 2, RRM domain, GST-SBP tag (RBFOX2, Homo sapiens, UniProt O43251-10, residues 100-194)
Notes: natural RNA segment, single round, ends assumed
Shared flanks, not repeated: GGGAGUUCUACAGUCCGACGAUC … UGGAAUUCUCGGGUGCCAA
Construct (chain): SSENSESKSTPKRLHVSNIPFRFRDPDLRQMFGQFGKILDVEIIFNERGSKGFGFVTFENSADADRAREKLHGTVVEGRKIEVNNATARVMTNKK
CAGUGUGACUUGUCCUGAUCAGGUAGAGAGAGCUUGUGGUCAUAUUCCCCAAUGGGCAUGCCUGUGGGAUGUGGGGAGGGGCAGAGAGGCAGAAUUCCACCUGUUCGUUG: 6.95
ACUUGUCCAGUGCUCCCACGGCCUGUACGGACACUGUGGAAGGCCUCCCUCUGUCGGCUUUUUGCCAUCUGUGAUAUGCCAUAGGUGUGACAAUCCGAGCAGUGGAGUCA: 0.273
UCCACCCACAGUCCCUUCCCUGUGCACCCUGCUUUGUCCCCUGCCUUGUCCCCUGCUCUCUCUUCUACCUACCUGCCUACCCCUGCAGAUCCUGUGGGCAGACACCUUAC: 2.27
AUGUAUUUGUUUAUCGACACACUCACCCUUUCUGAGAUAGCAUUUUGCUCCCUUGAUCCCCCCCUUUUUUUGUCCCUUCGAAGAGUAAAUGCUUUGUAUUUCUUUCUUUA: 0.702
CUUUGGUGGCCCUCUACUCUAUUGUCCCACACCCUACAUUCUCUCCUCUGGACUCCCAAGGAGGCUGGUGCCAGGGAGAUGCCCUCACCCACCCCCAUUUGCACUGAGAA: 0.648
GGCACAUGCUCGGUUUGGCCAGUAGAAUUUGUAUUUAUGCUUUUUUUUUCCCCAAAAGUAUUUUAAUUUCUCUACCAAAGGGGGAAAAGAAAGCAGGCUGAGGUUAUUAU: 0.601
CUCAAAGCUUAUUUGAGUAGAAUGGGCUCAUGGGCAAUGUGAUGUUCCCUGUUAACCUUCUGUUACUCCCUGGGAGAAAGGCGCUGAGCGUGGCAUGCAGGUGUCUUUGC: 1.35
GAGCUUUGGACACAGGACCAGUUUGAUAAAGGGCCAGGUAAGGGUUUCCACUCUGCACAUUGUAGAGGGGACACCGAAGGCCCAUGGGUCCCUAAUUAAAGAAGUUGAGU: 1.26
UAUUGCUGACCAGUCAGUGUCAUCUCCCGGGUGAAUUUUGAUGUCACGUUAUAGUCAAAUGAGUUAGCUGAUGGUUUCUAGAUUUUCUUCCUCUGAACCAUGAUGCAGUA: 0.568
GGCCAGAACUUGAGUAUUUACUAACACGUUUUUCAAAAGAUGUCAGUGUUAUACCUAAAGCUAAAAAAAAGCAAGGGUUUGUCAUAGAGGGAACCUCUAAAUAAUUUCAG: 0.314
CUCCAUCAGAUGUCUGGGCCUCCUCCAUCAGAUGCCUGGGCCUCCUCCAUCAGAUGCCUGGGCCUCCUCCAUCAGAUGUCUAGGCCUCCUCCAUCAGAUGCCUGGGCCUC: 0.259
UGUGGAGCCUCUGGCAUAAGAGGAAAUGUUGCCCGAGCUAAGAGCAAAAGGAAGGUGAUAGGGAAUUAUGGAAGUCCAUCCAAGCCCCUGACACAGAGCCUUCUGUGCUG: 0.231

Sample 5 — method: protein-binding microarray; molecule type: double-stranded DNA, one strand shown; matrix: in vitro; tested at: 0.8 µM; notes: whole 60-bp probe, no competitor; direction: higher = stronger binding; endpoint: fluorescence intensity; shared flanks, not repeated: … GTCTTGATTCGCTTGACGCTGCTG
Target: Centromere-binding protein 1, full length, N-terminal tag (CBF1, Saccharomyces cerevisiae, UniProt P17106, residues 1-351)
Chain of UniProt P17106 (whole entry, looked up): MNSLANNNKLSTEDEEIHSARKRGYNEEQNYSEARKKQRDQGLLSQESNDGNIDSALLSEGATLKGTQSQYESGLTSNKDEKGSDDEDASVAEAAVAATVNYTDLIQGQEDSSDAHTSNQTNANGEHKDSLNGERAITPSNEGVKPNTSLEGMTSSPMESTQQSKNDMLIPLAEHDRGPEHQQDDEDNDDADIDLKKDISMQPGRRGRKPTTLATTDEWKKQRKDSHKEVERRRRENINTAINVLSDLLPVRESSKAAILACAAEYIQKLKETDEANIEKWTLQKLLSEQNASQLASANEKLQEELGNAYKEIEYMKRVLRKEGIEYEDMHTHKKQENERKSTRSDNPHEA
CTACGCAGAAAATTTCAGGTGAGATAAGGTGCGTTC: 519 a.u.
CTACGTGCCACTGTGGCCGTGTCAGGTCACGTGTTC: 19200 a.u.
GAACCCGCGTCAGCAGATGTCACAATTTGATTATAG: 647 a.u.
CTATTATGGTATCACGACATCACCACAACAGAGTTC: 1120 a.u.
CTACAGTAATCGAGTCATGTGTACTTTAAAGTTTTC: 1840 a.u.
TGTACGAAGCTATTGCACATGCTTATAGTAGTTAGG: 626 a.u.
TGTACGAAGCTATCACGTGCAACTATAGTAGTTAGG: 10400 a.u.
GAACAAGATCAACGTCACGTCATAGTCAACTTCTAG: 687 a.u.
CTACTCATATATGGTCACGTGGCTCGATGTTTATTC: 25200 a.u.
GAATTTGATAGGAACGACGTGGTGTAGTGAATTTAG: 526 a.u.
CTAACTAAATACATGCAGGTGACTGATAGAAAATTC: 1500 a.u.
TGTACGAAGCTATATCGTGTGATTATAGTAGTTAGG: 586 a.u.
GAAGTGGATTACGCTCACGTGCTTTCCGCGGAATAG: 10800 a.u.
CTAGGTTCTTAAGATCACGTTAGCATCCTGTTGTTC: 1300 a.u.
CTAACCACGATATCGCACGCACACCAGGAAAGTTTC: 536 a.u.
GAAAGTACCTTTCAGGTGGTTAGAGTGCGATCCTAG: 543 a.u.
CTAAACCCACATCAGCACGAGTAGCGTACATAATTC: 538 a.u.
CTATATTTAAGGGTATACGTGCTACGGTCCACTTTC: 525 a.u.
GAAATCCGAGTATGGCGCGTGAAGAAAATGAAGTAG: 582 a.u.
CCTAACTACTATAATGACGTCAAATAGCTTCGTACA: 495 a.u.
GAACGTAAAGTACATCATGTTTACCAGTTTAAATAG: 542 a.u.
CTACCATTTGTCAAGCACATGCTTAATCCAACATTC: 961 a.u.

A few entries again (sample 3):
H122M: -1.34%
V136G: -11.8%
Y115V: 4.7%
L91W: -1.06%
S150G: 1.42%
V44N: -2.01%
E127K: 45.5%
V76Y: -0.427%
V121R: 3.72%
N61A: 33.1%
Y18H: 42.1%
S27C: 2.06%
K126E: 34.8%
